{"data": "Assay results of several laboratories", "note": "Every numbered part comes from another study and shows a few of its results, in no order."}
{"data": "Set 1", "target": "RNA binding protein fox-1 homolog 2, RRM domain, GST-SBP tag (RBFOX2, Homo sapiens, UniProt O43251-10, residues 100-194)", "technique": "RNA Bind-n-Seq", "form": "RNA", "matrix": "in vitro", "concentration": "365 nM", "setting": "natural RNA segment, single round, ends assumed", "reference": "no-protein control", "direction": "higher = stronger binding", "shared flanks, not repeated": "GGGAGUUCUACAGUCCGACGAUC … UGGAAUUCUCGGGUGCCAA", "Target sequence (chain)": "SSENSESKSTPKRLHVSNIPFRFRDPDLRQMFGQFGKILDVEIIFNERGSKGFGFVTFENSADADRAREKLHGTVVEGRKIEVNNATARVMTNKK"}
{"Strand": "UGCUUCCUAUGACUCCCUGGCUGCACAAGAAGAAAUUGUCUGUCUUCCAUAUAUGCUUCUAAGUAUCCUACCUCUUUGAAGAAAAGAUAGGGAUGGAGUGAGGUGACAGU", "RBNS enrichment (R)": 0.235}
{"Strand": "UUCUGUUGGCCACCAGACUUGCAUUUCAGCCUCUGUCAUAAUGCUCUGCCCUCCCUCCCCCGAAGGUCUCUGUGGUGAUGACCGCUCUCCCCUGCCCCUCCCCGCUUCCU", "RBNS enrichment (R)": 0.725}
{"Strand": "UAGUUCCCGCGACAUUCCGCCUUCCUCCGUUAGCCCCUUGGUAAUCCACCACCAAGCCUGGGGACUUCGCCCCAACAAAAUUGUAAACGUUGUUAGGUUUUCGUGUAAGA", "RBNS enrichment (R)": 0.383}
{"Strand": "GUGUGAGGCCCCCGGAGGCGCCCACCUGCCCAGUUAGCCCGGCCAAGGACACUGAUGAGUCCUGCUGCUCGGGAAGGCCUGAGGGAAGCCCACCCGCCCCAGAGACUGCC", "RBNS enrichment (R)": 0.351}
{"Strand": "UAAUGGAAACUUAGAAGGUCAGAACUCUGUAAUGGACAUAAACUGUUAAGUACUCAGGCAUGACUACGCUAUCAGCUACGAAACAUGUUAACUCUCACUAGGAAUAGCUU", "RBNS enrichment (R)": 0.289}
{"Strand": "AAAUGAUCUAUCUUUUGGUCCACUUGCCUAAUUUUCCCAUUUUCCACCCCUGGCCCCCUACCCUUAGAUUCUCUGUGUUCCACAAGGAGACAUCAUGAGAUGUCUUCCUU", "RBNS enrichment (R)": 0.318}
{"Strand": "CUGUCUGAUGGGAGUAUAAAUUGGACAGUAAGGUUUUGUCUUAAUAAAAUGAAAUUUGUUUCUCAUGAUAUGAAUCUUGCAGGUAAGAUGUAGGGUUUAUUGAAAAUGUG", "RBNS enrichment (R)": 0.351}
{"Strand": "CACAAGCUGAGCUUUCUCCUUAUGGGGCAAACCUAUGUCUAACCAGAUACAGACCAAUUAGUUUAGAUCAAAUCACCUUCCACUUGGGCUACUUGUGACUUUCCAACCUG", "RBNS enrichment (R)": 0.217}
{"Strand": "CUGAUCCCAGGGCUUCCAGGAAAGCUCUGGCUUUGGAGCAGAAGCGGGUUCUAGGACUUAGUGCCCCUCACUCGGUGCCUGGGUUCCUGUGUGUGUGGAAAGGGUAGGGC", "RBNS enrichment (R)": 1.26}
{"Strand": "GACUUGAUAGCCAGGCUGACUGGGUUCUAGGCAGGCCCUCUGGAAAGGUAGCUCACCUAACAAAGCUCCUCCAUCUCAGCAUGCCAGACCCACUUUGAAAUCUCACAGAA", "RBNS enrichment (R)": 0.356}
{"Strand": "AGCAGAGGCAAACAGGUUUCUUGAGUUCAGGCCAGUCAGGUCUGCAUAAGGAGCUUUAGACCAGUCAAUGAUACAUAGUGAAACCCUACCUCAAAAACAAAACAAAAAAA", "RBNS enrichment (R)": 0.464}
{"Strand": "AAGUCACUGGCAAUACGGGUUUAAAGCAGGUACUUAGAUCACGGUUUUCUCUGUAAGAAAAUAUGGCCGUCACCCCCGCCCACCAAAAAAAAAUGAUUUGCUCUUUGUGA", "RBNS enrichment (R)": 0.669}
{"data": "Set 2", "target": "Interferon regulatory factor 7, full length, phosphomimetic (IRF7, Homo sapiens, UniProt Q92985, residues 1-503, S471D/S472D/S475D/S476D/S477D/S483D/S484D/S487D)", "technique": "protein-binding microarray", "form": "double-stranded DNA, one strand shown", "matrix": "in vitro", "concentration": "2200 nM top", "setting": "60-bp whole probe", "added": "salmon DNA 0.4 mg/ml", "reference": "random background probes", "direction": "higher = stronger binding", "shared flanks, not repeated": "GCCTAGCAC … GTCTTGATTCGCTTGACGCTGCTG", "Construct (chain)": "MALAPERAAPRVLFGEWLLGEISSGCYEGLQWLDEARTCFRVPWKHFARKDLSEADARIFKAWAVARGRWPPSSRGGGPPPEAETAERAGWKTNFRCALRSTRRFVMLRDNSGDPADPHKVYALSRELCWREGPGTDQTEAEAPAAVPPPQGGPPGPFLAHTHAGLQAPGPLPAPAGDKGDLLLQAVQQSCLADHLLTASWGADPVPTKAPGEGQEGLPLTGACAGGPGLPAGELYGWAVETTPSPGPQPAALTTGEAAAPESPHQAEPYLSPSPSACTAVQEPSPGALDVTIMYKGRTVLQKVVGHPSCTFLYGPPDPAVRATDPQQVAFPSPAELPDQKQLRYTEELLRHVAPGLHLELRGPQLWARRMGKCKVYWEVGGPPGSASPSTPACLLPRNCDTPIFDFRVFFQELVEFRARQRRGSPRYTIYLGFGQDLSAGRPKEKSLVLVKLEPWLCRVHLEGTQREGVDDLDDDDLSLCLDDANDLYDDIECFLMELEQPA"}
{"Strand": "TTAGATATCAATCTCGATTAGTGCTAG", "fitted relative affinity [z-score]": -0.183}
{"Strand": "GACGGTTTCGCGTATCGGGACGTGCTA", "fitted relative affinity [z-score]": 3.03}
{"Strand": "TCATATGTAATCATTCACACTGTGCTA", "fitted relative affinity [z-score]": 0.785}
{"Strand": "TTAGGTCGCCTTATCCTTTAGTGCTAG", "fitted relative affinity [z-score]": 0.395}
{"Strand": "TCATTTACCCATCTCCAACTGTGCTAG", "fitted relative affinity [z-score]": 2.48}
{"Strand": "TTAGGACTGCTTATCCTGTAGTGCTAG", "fitted relative affinity [z-score]": 0.272}
{"Strand": "GACGGTTTCGACTTCCGGGACGTGCTA", "fitted relative affinity [z-score]": 8.17}
{"Strand": "AGCAGGGGCGCAGGTAGGTGGTGCTAG", "fitted relative affinity [z-score]": -1.25}
{"Strand": "TCATATATACAAACTAAGACTGTGCTA", "fitted relative affinity [z-score]": -0.137}
{"Strand": "GACGATACCAGTATCGAGACGTGCTAG", "fitted relative affinity [z-score]": 0.405}
{"Strand": "TCAACTCTCAGAATCTCACTGTGCTAG", "fitted relative affinity [z-score]": 0.677}
{"Strand": "TTAGGTTTCGGGTCTCGGTTAGTGCTA", "fitted relative affinity [z-score]": 8.29}
{"Strand": "GGATGTTGCAAATATTGCTAGGTGCTA", "fitted relative affinity [z-score]": 0.0352}
{"Strand": "TTAGGTCTCGGTTTCGATTAGTGCTAG", "fitted relative affinity [z-score]": 5.52}
{"Strand": "CCCTTTCTCTCTGTGACACAGTGCTAG", "fitted relative affinity [z-score]": 3.25}
{"Strand": "GGTGGTCTGGGACCCTCCCCGTGCTAG", "fitted relative affinity [z-score]": -1.02}
{"Strand": "GTATTTTTCTAAACCATTTTGTGCTAG", "fitted relative affinity [z-score]": 1.22}
{"Strand": "GACGGTATCGGGTTCCGGGACGTGCTA", "fitted relative affinity [z-score]": 0.543}
{"Strand": "TTAGGACTGGGTCTTGGTTAGTGCTAG", "fitted relative affinity [z-score]": -0.475}
{"Strand": "TGAGGTTTCCTTCTCCTTTAGTGCTAG", "fitted relative affinity [z-score]": 2.05}
{"Strand": "GACGGACTGGCCTATCGGGACGTGCTA", "fitted relative affinity [z-score]": -0.852}
{"Strand": "GACGATATCAGTATCGATACGTGCTAG", "fitted relative affinity [z-score]": 0.459}
{"Strand": "TCATTTCTATCTCTGTTACTGTGCTAG", "fitted relative affinity [z-score]": 2.74}
{"Strand": "AACGATATCAGTTTCGAGACGTGCTAG", "fitted relative affinity [z-score]": 3.61}
{"Strand": "TCAAGTTTCCCTCCCTGACTGTGCTAG", "fitted relative affinity [z-score]": 2.18}
{"data": "Set 3", "target": "Centromere-binding protein 1, full length, N-terminal tag (CBF1, Saccharomyces cerevisiae, UniProt P17106, residues 1-351)", "technique": "protein-binding microarray", "form": "double-stranded DNA, one strand shown", "matrix": "in vitro", "concentration": "0.8 µM", "setting": "whole 60-bp probe, no competitor", "direction": "higher = stronger binding", "shared flanks, not repeated": "… GTCTTGATTCGCTTGACGCTGCTG", "sequence of UniProt P17106 (whole entry, looked up)": "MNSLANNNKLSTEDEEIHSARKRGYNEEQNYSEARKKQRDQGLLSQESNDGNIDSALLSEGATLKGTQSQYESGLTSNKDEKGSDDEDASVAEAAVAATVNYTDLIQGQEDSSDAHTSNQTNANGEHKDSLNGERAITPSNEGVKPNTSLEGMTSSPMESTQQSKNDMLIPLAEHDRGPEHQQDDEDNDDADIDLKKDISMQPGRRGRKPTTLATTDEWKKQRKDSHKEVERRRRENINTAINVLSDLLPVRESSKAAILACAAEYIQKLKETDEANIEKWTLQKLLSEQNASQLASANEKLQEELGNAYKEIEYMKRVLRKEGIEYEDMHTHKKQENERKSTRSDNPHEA"}
{"Strand": "GAAAGCGAATTTCCTCACATGTAGGGACCGAATTAG", "fluorescence intensity [a.u.]": 617}
{"Strand": "GAAACTCAGAGCACGCACGCTTCCGTTCGAAATTAG", "fluorescence intensity [a.u.]": 574}
{"Strand": "GAACATTCTGTGGTGAATGTGACTGAGCAGTTTTAG", "fluorescence intensity [a.u.]": 627}
{"Strand": "TGTACGAAGCTATGGCACGGGATTATAGTAGTTAGG", "fluorescence intensity [a.u.]": 962}
{"Strand": "GAATTAAATTATGACCCCGTGGTGTTTGGGTTATAG", "fluorescence intensity [a.u.]": 1190}
{"Strand": "CTATTAGTAGTATATTATCACGTGCGGTGTAAGTTC", "fluorescence intensity [a.u.]": 10300}
{"Strand": "CTAATGGGATACGTCAGCATGACAATACATTATTTC", "fluorescence intensity [a.u.]": 556}
{"Strand": "CTATTCTCAAACCTTCACCTGGTGGTGCGTATCTTC", "fluorescence intensity [a.u.]": 567}
{"Strand": "GAATATTGTTTCTTATTCGTGATGTTGGGTTCATAG", "fluorescence intensity [a.u.]": 524}
{"Strand": "GAACGGGGTCCGGGTAACGTGCTTGCGCGCGGATAG", "fluorescence intensity [a.u.]": 827}
{"Strand": "GAAAGTCTTAAATAGCACGAGGAAATTTCCATGTAG", "fluorescence intensity [a.u.]": 725}
{"Strand": "GAAATGGACATTATAAACGTGTGAACATTTCAATAG", "fluorescence intensity [a.u.]": 544}
{"Strand": "CTATTATCGTTCTCTGACATCACCCACTCTCTGTTC", "fluorescence intensity [a.u.]": 574}
{"Strand": "GAAATTACTGCACGTCATGTGGGAGGAGGATGTTAG", "fluorescence intensity [a.u.]": 1020}
{"Strand": "CTAGCTGTGTTTCCGGACGTGCTCTTCACTTTCTTC", "fluorescence intensity [a.u.]": 513}
{"Strand": "TGTACGAAGCTATTCGGTGTGATTATAGTAGTTAGG", "fluorescence intensity [a.u.]": 522}
{"Strand": "GAATTCATTGGTCATCACCACTTAAACGATTCGTAG", "fluorescence intensity [a.u.]": 600}
{"Strand": "CCTAACTACTATAGCGGTCAGATATAGCTTCGTACA", "fluorescence intensity [a.u.]": 507}
{"Strand": "CTAATATCGCTAGCATGCGTGAGTTATGGATAATTC", "fluorescence intensity [a.u.]": 551}
{"Strand": "GAAAGGTTTGCCTTCCACGTTGAAGTACTAAAATAG", "fluorescence intensity [a.u.]": 516}
{"Strand": "GAAAGGGCTTTTGAGCAGGTGAATAGAAGGTAGTAG", "fluorescence intensity [a.u.]": 546}
{"data": "Set 4", "target": "Histone acetyltransferase KAT6A, both winged helices, GST fusion (KAT6A, Homo sapiens, UniProt Q92794, residues 1-181)", "technique": "protein binding microarray", "form": "double-stranded DNA, one strand shown", "matrix": "in vitro", "concentration": "not given", "setting": "8-mer, flanks averaged, mean of 2 arrays, mostly near background", "reference": "not given", "direction": "higher = stronger binding", "Construct (chain)": "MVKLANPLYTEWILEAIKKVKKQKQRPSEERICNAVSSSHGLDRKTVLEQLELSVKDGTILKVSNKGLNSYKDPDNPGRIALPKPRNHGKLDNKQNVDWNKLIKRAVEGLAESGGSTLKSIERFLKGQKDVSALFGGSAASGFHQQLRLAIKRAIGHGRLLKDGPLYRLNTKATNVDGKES"}
{"Strand": "ACGCGACT", "E-score": 0.0454}
{"Strand": "AATGTGTA", "E-score": -0.116}
{"Strand": "ACCACGTC", "E-score": -0.0978}
{"Strand": "AATTGGGT", "E-score": -0.16}
{"Strand": "ATGGAACG", "E-score": -0.0847}
{"Strand": "TAACCTTA", "E-score": -0.12}
{"Strand": "AGCCGCCG", "E-score": 0.329}
{"Strand": "GGAATTTA", "E-score": -0.00356}
{"Strand": "GTGGCACA", "E-score": -0.148}
{"Strand": "AATATAAT", "E-score": -0.0339}
{"Strand": "AACACAAG", "E-score": -0.0805}
{"Strand": "ACTGGCTG", "E-score": -0.0274}
{"Strand": "CCTATAAG", "E-score": -0.2}
{"Strand": "ATGTAAGC", "E-score": 0.029}
{"Strand": "CGACAGTC", "E-score": -0.121}
{"Strand": "CAGGGAGA", "E-score": -0.146}
{"note": "Excerpt of the above (set 4):"}
{"Strand": "ATGTAAGC", "E-score": 0.029}
{"Strand": "GGAATTTA", "E-score": -0.00356}
{"Strand": "AATGTGTA", "E-score": -0.116}
{"Strand": "AATTGGGT", "E-score": -0.16}
{"Strand": "CGACAGTC", "E-score": -0.121}
